Measurements from different studies.
Every numbered part comes from another study and shows a few of its results, in no order.

Series 1 — technique: RNA Bind-n-Seq; form: RNA; matrix: in vitro; concentration: not given; relative to: input RNA pool; direction: higher = stronger binding
Target: RING finger protein unkempt homolog, zinc fingers 1-6, GST-SBP tag (UNK, Homo sapiens, UniProt Q9C0B0, residues 30-357)
UniProt Q9C0B0, sequence (30-357, looked up): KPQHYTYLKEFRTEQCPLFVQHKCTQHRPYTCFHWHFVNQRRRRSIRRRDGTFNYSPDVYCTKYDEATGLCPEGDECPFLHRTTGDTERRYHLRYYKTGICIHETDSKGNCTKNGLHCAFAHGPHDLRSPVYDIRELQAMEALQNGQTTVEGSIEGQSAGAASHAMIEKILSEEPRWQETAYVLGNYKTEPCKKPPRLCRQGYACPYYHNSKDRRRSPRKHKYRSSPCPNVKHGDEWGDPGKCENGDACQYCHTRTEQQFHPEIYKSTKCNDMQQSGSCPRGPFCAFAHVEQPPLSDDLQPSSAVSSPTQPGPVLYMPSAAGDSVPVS
Setting: RNA with constant flanks, human-mouse chimeric sites, ends assumed
Shared flanks, not repeated: GGGAGUUCUACAGUCCGACGAUC … CAACAGAGGAUUGAGCAUCA
| Oligonucleotide | bound/input enrichment [ratio] |
| --- | --- |
| CAGUCCCCGUGUCCCAGUGCAGGACGAUGUGAACAAAAACUCAAAGCGGACCCUCUAUUGUAGUUCUUGAUUCUCGAAAUGUGCUAUUGUUUUUAAACUUUUUUUUUAAAAGAAAAGAGA | 0.31 |
| CACGUGUCUGCAGUACUUGAUGUGGAUUACUCUCCCACUGGGAAGGAAUUUGUGUCUGCCAGCUUUGAUAAGUCUAUUCGAAUCUUUCCUGUGGACAAGAGCCGAAGCAGGGAAGUGUAU | 0.143 |
| AGAGAAAUGAGAAAGAAUCUUACACAAGAAGAGAUGCAAAGAAUGUCUACUAGAGUCCUUUUAGCCACUCUUUCCAUUCCUAUUACUCCUGAGCGAACGGAUAUUGCUCGACUUUUGGAU | 0.153 |
| UUACCCGAAAAUGAAGAUGAGCUGGAGAGCACCAAUAGGCGCUACACCAAGAGGGACUGCAGCACUUUCCUCAGAACUAGUGAGACGGGCAUCGUGGACCAGGUCAUGGUCACUCUCAAC | 0.255 |
| UCUGGUCACACUCGUGUGUAUGGUGUUUGCUUUGUUGACACUUCACUGGGCAAGUUUUUCAUCGGCCAGUUUUCGGAUGACCGCCACUGUUCCAGAUUUAGGACGCUAGUGGCACACUAU | 0.199 |
| AUGGUUGUGUCUCUUGAGAUCUAAAAACAAGAUGACUUUUCCUGGCACAUAUUCCAAAGCAAAGACUUUGUUGCCUGCUGCUUAUUGUCUAAUUUACAGGGAUAUUUAAUUUUGUCAGGU | 0.307 |
| UUAUCCAAGACUCAACGAAAGACUCCAACGGUUAUUCAUAAACAUUACCAAAUACAUCGCAUUAGACAUUUUUAUAUGAGAAAAGUCAAAUUUACUCAACAGAAUUACCAUGACAGACUG | 4.9 |
| CCAAUUGUGGAGCAGUACUUGAAGACAAAGAAAAAUUCUAAUAAUUUAAUCAUCAAGUACAUUAGCUGCCGGCUGGUGACACUCAUCAUUAUACUGUUAGCGUGUAUCUACUUGAGCUAU | 0.314 |

Series 2 — technique: protein binding microarray; form: double-stranded DNA, one strand shown; matrix: in vitro; concentration: not given; relative to: not given; direction: higher = stronger binding
Target: Histone acetyltransferase KAT6A, both winged helices, GST fusion (KAT6A, Homo sapiens, UniProt Q92794, residues 1-181)
Setting: 8-mer, flanks averaged, mean of 2 arrays, mostly near background
Construct (chain): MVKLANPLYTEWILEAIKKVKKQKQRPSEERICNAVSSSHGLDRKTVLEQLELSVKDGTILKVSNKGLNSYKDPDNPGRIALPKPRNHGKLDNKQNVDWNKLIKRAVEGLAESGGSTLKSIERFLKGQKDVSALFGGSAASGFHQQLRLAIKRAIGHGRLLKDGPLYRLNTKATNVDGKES
| Oligonucleotide | E-score |
| --- | --- |
| CTTACCAC | -0.189 |
| CCAGTCGC | 0.00105 |
| GTAGTGGA | -0.0665 |
| ATAATGCG | 0.111 |
| CATTTGAG | -0.166 |
| CCTTACCC | 0.0288 |
| AGCCGAAA | -0.067 |
| AGGTTCGC | 0.0655 |
| ACCTTTAA | -0.0778 |
| AATCGCTA | 0.0825 |
| ACCCGCAT | 0.163 |
| ACCTCTTA | -0.00934 |
| TACCAACA | -0.0603 |
| CCTGTTTA | 0.00114 |
| AGAGCCAC | -0.125 |
| GAGCCTAC | -0.104 |
| AAAACCCA | -0.0999 |
| TCTCCGCA | 0.138 |
| CCGACGCG | 0.371 |
| CGTGGGAC | 0.1 |
| CATAATAC | -0.114 |
| ATTAATCG | 0.0705 |
| AGCTTAAT | -0.0955 |

Series 3 — technique: universal PBM; form: double-stranded DNA, one strand shown; matrix: in vitro; concentration: not given; direction: higher = stronger binding
Target: Sal-like protein 4, full length isoform B (SALL4, Homo sapiens, UniProt Q9UJQ4-2, residues 1-616)
Setting: 8-mer, flanks averaged, mean of replicates
| Oligonucleotide | E-score |
| --- | --- |
| CAGCAAAA | 0.134 |
| GCCGATCA | 0.0483 |
| CGTCTCTA | -0.204 |
| ACTCATCT | 0.165 |
| ACAAGACC | -0.0896 |
| GGTCAGAC | -0.216 |
| CACGTGAG | -0.147 |
| TAGACTCA | -0.0451 |
| GGAGGTCA | -0.127 |
| CGGAGGCA | -0.209 |
| CGAATAAC | 0.0691 |
| CAGCGGGG | -0.275 |
| TAAAGTCA | 0.173 |
| CAATAGGG | -0.0439 |
| CTACGTAG | 0.0637 |
| CAACACCC | -0.111 |
| CCTCCGTC | -0.238 |
| ATCCTTCC | -0.0111 |
| AGGGCCCG | -0.276 |
| GATTGTCA | 0.141 |

Series 4 — technique: protein-binding microarray; form: double-stranded DNA, one strand shown; matrix: in vitro; concentration: 2540 nM top; setting: 60-bp whole probe; added: salmon DNA 0.4 mg/ml; relative to: random background probes; direction: higher = stronger binding; shared flanks, not repeated: GCCTAGCAC … GTCTTGATTCGCTTGACGCTGCTG
Target: Interferon regulatory factor 3, full length, phosphomimetic (IRF3, Homo sapiens, UniProt Q14653, residues 1-427, S386D/S396D/S398D/S402D/T404D/S405D)
UniProt Q14653, sequence (whole entry, unmodified, looked up): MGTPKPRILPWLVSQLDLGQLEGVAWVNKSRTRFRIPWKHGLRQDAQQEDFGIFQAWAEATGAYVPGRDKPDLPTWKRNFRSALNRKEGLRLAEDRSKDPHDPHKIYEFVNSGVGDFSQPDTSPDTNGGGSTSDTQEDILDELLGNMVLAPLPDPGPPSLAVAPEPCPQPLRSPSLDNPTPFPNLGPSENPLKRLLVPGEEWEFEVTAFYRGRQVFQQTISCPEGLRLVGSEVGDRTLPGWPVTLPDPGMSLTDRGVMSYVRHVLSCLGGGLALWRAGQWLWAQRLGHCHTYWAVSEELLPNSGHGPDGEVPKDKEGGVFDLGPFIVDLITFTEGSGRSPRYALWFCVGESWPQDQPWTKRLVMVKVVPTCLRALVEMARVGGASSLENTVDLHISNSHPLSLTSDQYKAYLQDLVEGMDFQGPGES
| Oligonucleotide | fitted relative affinity [z-score] |
| --- | --- |
| TCACTTCTGCTTCCTCAGACTGTGCTA | 1.13 |
| TCAGAATTGAAAATTAGTACTGTGCTA | 0.245 |
| GAGGGTCTCCTTATCCTGACGTGCTAG | 1.38 |
| TTAGGACTGGGTCTCGGTTCGTGCTAG | -0.467 |
| TCAAATTTCCCTCTGCTACTGTGCTAG | 2.27 |
| TAATTTCCATTTTCTAAATGCGTGCTA | 6.62 |
| TCACATCTGTCATGTTTGACTGTGCTA | 0.513 |
| TTAGGTATCGACACTGGCTTAGTGCTA | 0.143 |
| TGAGGTCTCCTTATCCTTTAGTGCTAG | 2.38 |
| GACGATATCAGTGTCGAGACGTGCTAG | 0.581 |
| TTAGGTCTCCTTTGCCTTTAGTGCTAG | 0.978 |
| TTAGGCCTCGGACTGGGTTAGTGCTAG | -1.02 |
| GGCGGTATCGACACTGGGGACGTGCTA | 0.494 |
| TTAGGTATCGACACTGGTTTAGTGCTA | 0.347 |
| TTAGAACTGAGACTTGATTAGTGCTAG | -0.472 |
| TTACGTTCCGGTTTCGGTTAGTGCTAG | 6.97 |
| TTAGGACTGGGTATCTGTTAGTGCTAG | -0.344 |
| GACGGACAGCTTCTCCTGACGTGCTAG | -0.596 |
| TCAATTCTCCACTTGTGACTGTGCTAG | 1.31 |

Some of these lines once more (series 1):
| Oligonucleotide | bound/input enrichment [ratio] |
| --- | --- |
| CAGUCCCCGUGUCCCAGUGCAGGACGAUGUGAACAAAAACUCAAAGCGGACCCUCUAUUGUAGUUCUUGAUUCUCGAAAUGUGCUAUUGUUUUUAAACUUUUUUUUUAAAAGAAAAGAGA | 0.31 |
| CACGUGUCUGCAGUACUUGAUGUGGAUUACUCUCCCACUGGGAAGGAAUUUGUGUCUGCCAGCUUUGAUAAGUCUAUUCGAAUCUUUCCUGUGGACAAGAGCCGAAGCAGGGAAGUGUAU | 0.143 |
| AGAGAAAUGAGAAAGAAUCUUACACAAGAAGAGAUGCAAAGAAUGUCUACUAGAGUCCUUUUAGCCACUCUUUCCAUUCCUAUUACUCCUGAGCGAACGGAUAUUGCUCGACUUUUGGAU | 0.153 |
| UUACCCGAAAAUGAAGAUGAGCUGGAGAGCACCAAUAGGCGCUACACCAAGAGGGACUGCAGCACUUUCCUCAGAACUAGUGAGACGGGCAUCGUGGACCAGGUCAUGGUCACUCUCAAC | 0.255 |
| UCUGGUCACACUCGUGUGUAUGGUGUUUGCUUUGUUGACACUUCACUGGGCAAGUUUUUCAUCGGCCAGUUUUCGGAUGACCGCCACUGUUCCAGAUUUAGGACGCUAGUGGCACACUAU | 0.199 |
| AUGGUUGUGUCUCUUGAGAUCUAAAAACAAGAUGACUUUUCCUGGCACAUAUUCCAAAGCAAAGACUUUGUUGCCUGCUGCUUAUUGUCUAAUUUACAGGGAUAUUUAAUUUUGUCAGGU | 0.307 |
| UUAUCCAAGACUCAACGAAAGACUCCAACGGUUAUUCAUAAACAUUACCAAAUACAUCGCAUUAGACAUUUUUAUAUGAGAAAAGUCAAAUUUACUCAACAGAAUUACCAUGACAGACUG | 4.9 |
| CCAAUUGUGGAGCAGUACUUGAAGACAAAGAAAAAUUCUAAUAAUUUAAUCAUCAAGUACAUUAGCUGCCGGCUGGUGACACUCAUCAUUAUACUGUUAGCGUGUAUCUACUUGAGCUAU | 0.314 |
